Results collected from several papers.
Protocols differ between the studies behind these lines. ± marks the error that the study gave.
Chain of UniProt P08253 (whole entry, looked up): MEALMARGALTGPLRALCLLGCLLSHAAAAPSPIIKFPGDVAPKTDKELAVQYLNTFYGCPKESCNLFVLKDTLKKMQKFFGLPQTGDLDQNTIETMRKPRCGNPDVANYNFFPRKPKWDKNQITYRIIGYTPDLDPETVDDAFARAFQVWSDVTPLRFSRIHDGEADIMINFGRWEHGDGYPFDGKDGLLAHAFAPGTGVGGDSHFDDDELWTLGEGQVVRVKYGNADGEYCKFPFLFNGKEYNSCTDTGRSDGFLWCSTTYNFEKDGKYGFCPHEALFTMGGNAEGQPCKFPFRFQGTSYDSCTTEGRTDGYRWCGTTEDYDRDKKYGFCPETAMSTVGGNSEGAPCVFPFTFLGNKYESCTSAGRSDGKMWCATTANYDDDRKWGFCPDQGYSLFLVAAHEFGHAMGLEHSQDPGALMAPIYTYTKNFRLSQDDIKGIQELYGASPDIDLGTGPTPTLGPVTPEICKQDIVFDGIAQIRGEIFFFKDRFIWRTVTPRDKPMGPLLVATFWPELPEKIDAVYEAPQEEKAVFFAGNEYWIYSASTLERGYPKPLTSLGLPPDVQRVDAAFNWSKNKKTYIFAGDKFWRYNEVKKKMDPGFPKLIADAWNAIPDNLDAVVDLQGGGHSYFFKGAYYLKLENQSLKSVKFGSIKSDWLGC

| SMILES | tested on | test | test system | conditions | scale | measurement | result |
| --- | --- | --- | --- | --- | --- | --- | --- |
| O=[N+]([O-])c1ccc(NC2CCNCC2)c(C(F)(F)F)c1 | Salmonella typhimurium | genotoxicity, SOS/umu test | TA1535/pSK1002 | 0.031 mg/mL, 4 h, with S9, full range |  | induction factor | 0.6 |
| CC(=O)N1CCC(C(=O)N2CCN3C(=O)c4cc(-c5ccccc5)ccc4NC(=O)C3C2)CC1 (stereo not shown) | Salmonella typhimurium |  | TA98 | 50 µg/plate |  | revertants per plate | 25.5 |
| [Cl-].[Cl-].[Pt+2].[Ru+2].c1ccc(-c2nc3ccccc3nc2-c2ccccn2)nc1.c1cnc2c(c1)ccc1cccnc12.c1cnc2c(c1)ccc1cccnc12 | Danio rerio |  | embryos | 15 µM, 96 h |  | survival rate | 86.7 ± 1.9% |
| COc1cc(Nc2ncc(F)c(Nc3ccc4c(n3)NC(=O)C(C)(C)O4)n2)cc(OC)c1OC | MMP2 (Homo sapiens, UniProt P08253) |  |  | metalloproteinase-2 |  | IC50 | > 10 µM |
| OC(CCN1CC=C(c2ccc(F)cc2)CC1)c1ccc(F)c2ccccc12 (stereo not shown) | Salmonella typhimurium | SOS/umu test | TA1535/pSK1002, TGA medium | 0.001 mg/mL, 4 h, together with: rat liver S9 |  | survival | 87.6% |
| COc1cccc(-c2n[nH]c(SCc3ccccn3)n2)c1OC | Salmonella typhimurium | Ames test, plate incorporation | TA1535 | 0.016 mg/plate, without S9 |  | revertant colonies per plate | 18 |
| [Cl-].[Cl-].[Pt+2].[Ru+2].c1ccc(-c2nc3cc4ccccc4cc3nc2-c2ccccn2)nc1.c1cnc2c(c1)ccc1cccnc12.c1cnc2c(c1)ccc1cccnc12 | Danio rerio |  | embryos | 45 µM, 48 h |  | hatching rate | 30 ± 2.1% |
| O=[N+]([O-])c1ccc(N2CCN(CCC(O)c3ccc(F)cc3)CC2)c(C(F)(F)F)c1 (stereo not shown) | Salmonella typhimurium | SOS/umu test | TA1535/pSK1002 | 0.063 mg/mL, 4 h, without S9, full range |  | survival | 35.8% |
| Cc1cc(C(=O)NC(C)(C)COc2cccc3c2C(N)=NS(=O)(=O)N3)cc(C)n1 | Salmonella typhimurium | Ames test, confirmatory | TA1535 | 333 µg/plate | baseline: solvent control | revertant ratio | 0.9 |
| CO[C@H]1C[C@@H]2CC[C@@H](C)[C@@](O)(O2)C(=O)C(=O)N2CCCC[C@H]2C(=O)O[C@H]([C@H](C)C[C@@H]2CC[C@@H](OC(=O)NCCOCCOCCOCCOCCOCCOCCOCCOCCC(=O)N3CCc4cc(Cn5nc(-c6ccc7oc(N)nc7c6)c6c(N)ncnc65)ccc4C3)[C@H](OC)C2)C[C@@H](O)[C@H](C)/C=C(\C)[C@@H](O)[C@@H](OC)C(=O)[C@H](C)C[C@H](C)/C=C/C=C/C=C/1C |  |  | patients with advanced solid tumours | intravenous, 16 mg weekly, any grade |  | AE leading to dose reduction | 75% |
| CC[C@H](C)[C@H](NC(=O)[C@H](Cc1ccccc1)NC(=O)[C@H](CCC(=O)O)NC(=O)[C@H](CCCNC(=N)N)NC(=O)[C@H](C)NC(=O)[C@H](C)NC(=O)[C@H](CCC(N)=O)NC(=O)[C@H](CCC(=O)O)NC(=O)[C@H](CCC(=O)O)NC(=O)[C@H](CC(C)C)NC(=O)[C@H](Cc1ccc(O)cc1)NC(=O)[C@H](CO)NC(=O)[C@H](CO)NC(=O)[C@@H](NC(=O)[C@H](CC(=O)O)NC(=O)[C@H](CO)NC(=O)[C@@H](NC(=O)[C@H](Cc1ccccc1)NC(=O)[C@@H](NC(=O)CNC(=O)[C@H](CCC(=O)O)NC(=O)[C@H](C)NC(=O)CCc1c[nH]cn1)[C@@H](C)O)[C@@H](C)O)C(C)C)C(=O)N[C@@H](C)C(=O)N[C@@H](Cc1c[nH]c2ccccc12)C(=O)N[C@@H](CC(C)C)C(=O)N[C@H](C(=O)N[C@@H](CCCNC(=N)N)C(=O)NCC(=O)N[C@@H](CCCNC(=N)N)C(=O)N[C@@H](CCCCNC(=O)COCCOCCNC(=O)COCCOCCNC(=O)CC[C@H](NC(=O)CCCCCCCCCCCCCCCCC(=O)O)C(=O)O)C(=O)NCC(=O)NCC(=O)N[C@@H](CO)C(=O)N[C@@H](CCCCNc1c(NCCCCCN(O)C(=O)CCC(=O)NCCCCCN(O)C(=O)CCC(=O)NCCCCCN(O)C(C)=O)c(=O)c1=O)C(=O)O)C(C)C [zirconium-89 labelled] |  | gamma counting | rat, skin of neck | intravenous, 3 nmol/kg, 4 h |  | tissue uptake | 0.48 %ID/g |
| C[C@H]1CN(c2n[nH]c3nc(N[C@H]4CC[C@H](NS(=O)(=O)CCC(F)(F)F)CC4)ncc23)CCO1 | Paxillin (PXN, Homo sapiens, UniProt P49023) | competitor, Kinobeads competition, item: PXN | human cell extract | 0.16 µM | baseline: vehicle | relative abundance | 0.97 |
| [Cl-].[Cl-].[Pt+2].[Ru+2].c1ccc(-c2nccnc2-c2ccccn2)nc1.c1cnc2c(c1)ccc1cccnc12.c1cnc2c(c1)ccc1cccnc12 | Danio rerio |  | embryos | 30 µM, 72 h |  | hatching rate | 36.7 ± 6.3% |

For quick reference, copied from above:
| SMILES | tested on | test | test system | conditions | scale | measurement | result |
| --- | --- | --- | --- | --- | --- | --- | --- |
| Cc1cc(C(=O)NC(C)(C)COc2cccc3c2C(N)=NS(=O)(=O)N3)cc(C)n1 | Salmonella typhimurium | Ames test, confirmatory | TA1535 | 333 µg/plate | baseline: solvent control | revertant ratio | 0.9 |
